Published values of several laboratories.
Parts stem from different laboratories: compare values within a part only.
Chain of UniProt P42336 (whole entry, unmodified, looked up): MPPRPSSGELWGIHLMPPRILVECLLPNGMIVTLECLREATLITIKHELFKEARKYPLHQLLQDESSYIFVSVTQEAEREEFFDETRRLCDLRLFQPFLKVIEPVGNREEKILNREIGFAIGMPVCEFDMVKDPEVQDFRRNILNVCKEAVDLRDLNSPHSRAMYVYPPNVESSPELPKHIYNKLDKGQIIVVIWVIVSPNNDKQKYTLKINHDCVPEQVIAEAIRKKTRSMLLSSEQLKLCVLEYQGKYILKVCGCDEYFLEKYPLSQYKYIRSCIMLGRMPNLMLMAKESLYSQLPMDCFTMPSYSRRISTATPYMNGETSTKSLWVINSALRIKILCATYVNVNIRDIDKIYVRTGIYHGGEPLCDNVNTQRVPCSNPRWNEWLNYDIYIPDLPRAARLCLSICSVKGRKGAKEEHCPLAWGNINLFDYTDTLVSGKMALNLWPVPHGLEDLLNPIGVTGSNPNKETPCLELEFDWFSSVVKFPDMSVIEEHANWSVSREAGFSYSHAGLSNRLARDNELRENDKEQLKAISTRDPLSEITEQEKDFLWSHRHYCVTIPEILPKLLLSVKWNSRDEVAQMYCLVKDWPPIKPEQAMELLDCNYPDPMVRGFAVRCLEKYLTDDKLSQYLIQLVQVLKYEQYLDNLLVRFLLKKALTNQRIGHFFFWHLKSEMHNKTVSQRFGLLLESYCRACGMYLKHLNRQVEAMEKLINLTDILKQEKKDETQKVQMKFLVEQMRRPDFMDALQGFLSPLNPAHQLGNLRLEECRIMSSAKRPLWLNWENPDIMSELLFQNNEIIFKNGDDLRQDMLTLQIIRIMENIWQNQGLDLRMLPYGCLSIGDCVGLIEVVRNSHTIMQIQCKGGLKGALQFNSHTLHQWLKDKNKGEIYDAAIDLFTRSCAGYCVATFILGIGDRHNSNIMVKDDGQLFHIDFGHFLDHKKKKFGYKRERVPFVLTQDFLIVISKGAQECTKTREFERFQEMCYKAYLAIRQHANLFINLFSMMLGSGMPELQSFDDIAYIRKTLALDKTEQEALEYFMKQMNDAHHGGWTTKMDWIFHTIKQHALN
Chain of UniProt D3Z7P3 (whole entry, looked up): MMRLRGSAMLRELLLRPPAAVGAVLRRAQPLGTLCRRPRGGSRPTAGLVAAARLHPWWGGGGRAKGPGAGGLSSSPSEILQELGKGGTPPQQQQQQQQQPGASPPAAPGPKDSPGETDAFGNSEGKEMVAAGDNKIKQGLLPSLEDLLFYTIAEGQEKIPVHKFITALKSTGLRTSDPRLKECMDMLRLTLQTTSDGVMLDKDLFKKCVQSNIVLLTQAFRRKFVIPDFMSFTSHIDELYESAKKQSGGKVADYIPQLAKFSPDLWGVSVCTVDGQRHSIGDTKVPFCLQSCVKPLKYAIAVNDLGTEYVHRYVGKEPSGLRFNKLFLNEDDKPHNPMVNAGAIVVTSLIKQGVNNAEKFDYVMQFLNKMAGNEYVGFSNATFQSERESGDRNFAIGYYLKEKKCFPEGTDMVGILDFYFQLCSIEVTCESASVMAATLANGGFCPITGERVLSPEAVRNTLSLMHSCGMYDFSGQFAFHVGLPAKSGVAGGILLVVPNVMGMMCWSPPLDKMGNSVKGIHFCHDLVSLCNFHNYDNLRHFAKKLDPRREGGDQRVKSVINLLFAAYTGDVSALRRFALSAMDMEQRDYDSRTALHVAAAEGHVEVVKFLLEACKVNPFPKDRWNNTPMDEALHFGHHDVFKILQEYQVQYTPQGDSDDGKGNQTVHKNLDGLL
Chain of UniProt Q8NG66 (whole entry, looked up): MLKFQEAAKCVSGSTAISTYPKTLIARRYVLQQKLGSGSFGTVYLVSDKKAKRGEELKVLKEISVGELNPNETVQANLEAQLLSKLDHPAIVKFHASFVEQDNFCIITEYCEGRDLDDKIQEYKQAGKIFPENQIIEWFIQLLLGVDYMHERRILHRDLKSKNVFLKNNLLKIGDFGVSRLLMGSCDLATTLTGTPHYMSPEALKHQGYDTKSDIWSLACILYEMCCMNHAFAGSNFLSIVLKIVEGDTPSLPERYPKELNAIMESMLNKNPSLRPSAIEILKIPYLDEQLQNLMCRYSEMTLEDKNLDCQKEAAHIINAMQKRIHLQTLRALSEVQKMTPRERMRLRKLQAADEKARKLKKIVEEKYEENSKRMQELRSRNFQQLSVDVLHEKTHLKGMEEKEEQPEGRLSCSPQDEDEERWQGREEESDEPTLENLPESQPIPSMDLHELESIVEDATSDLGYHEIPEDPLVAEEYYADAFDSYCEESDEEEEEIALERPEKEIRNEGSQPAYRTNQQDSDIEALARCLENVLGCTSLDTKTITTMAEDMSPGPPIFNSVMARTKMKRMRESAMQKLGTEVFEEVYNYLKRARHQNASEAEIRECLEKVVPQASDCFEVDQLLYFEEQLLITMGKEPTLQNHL
Chain of UniProt O00750 (whole entry, looked up): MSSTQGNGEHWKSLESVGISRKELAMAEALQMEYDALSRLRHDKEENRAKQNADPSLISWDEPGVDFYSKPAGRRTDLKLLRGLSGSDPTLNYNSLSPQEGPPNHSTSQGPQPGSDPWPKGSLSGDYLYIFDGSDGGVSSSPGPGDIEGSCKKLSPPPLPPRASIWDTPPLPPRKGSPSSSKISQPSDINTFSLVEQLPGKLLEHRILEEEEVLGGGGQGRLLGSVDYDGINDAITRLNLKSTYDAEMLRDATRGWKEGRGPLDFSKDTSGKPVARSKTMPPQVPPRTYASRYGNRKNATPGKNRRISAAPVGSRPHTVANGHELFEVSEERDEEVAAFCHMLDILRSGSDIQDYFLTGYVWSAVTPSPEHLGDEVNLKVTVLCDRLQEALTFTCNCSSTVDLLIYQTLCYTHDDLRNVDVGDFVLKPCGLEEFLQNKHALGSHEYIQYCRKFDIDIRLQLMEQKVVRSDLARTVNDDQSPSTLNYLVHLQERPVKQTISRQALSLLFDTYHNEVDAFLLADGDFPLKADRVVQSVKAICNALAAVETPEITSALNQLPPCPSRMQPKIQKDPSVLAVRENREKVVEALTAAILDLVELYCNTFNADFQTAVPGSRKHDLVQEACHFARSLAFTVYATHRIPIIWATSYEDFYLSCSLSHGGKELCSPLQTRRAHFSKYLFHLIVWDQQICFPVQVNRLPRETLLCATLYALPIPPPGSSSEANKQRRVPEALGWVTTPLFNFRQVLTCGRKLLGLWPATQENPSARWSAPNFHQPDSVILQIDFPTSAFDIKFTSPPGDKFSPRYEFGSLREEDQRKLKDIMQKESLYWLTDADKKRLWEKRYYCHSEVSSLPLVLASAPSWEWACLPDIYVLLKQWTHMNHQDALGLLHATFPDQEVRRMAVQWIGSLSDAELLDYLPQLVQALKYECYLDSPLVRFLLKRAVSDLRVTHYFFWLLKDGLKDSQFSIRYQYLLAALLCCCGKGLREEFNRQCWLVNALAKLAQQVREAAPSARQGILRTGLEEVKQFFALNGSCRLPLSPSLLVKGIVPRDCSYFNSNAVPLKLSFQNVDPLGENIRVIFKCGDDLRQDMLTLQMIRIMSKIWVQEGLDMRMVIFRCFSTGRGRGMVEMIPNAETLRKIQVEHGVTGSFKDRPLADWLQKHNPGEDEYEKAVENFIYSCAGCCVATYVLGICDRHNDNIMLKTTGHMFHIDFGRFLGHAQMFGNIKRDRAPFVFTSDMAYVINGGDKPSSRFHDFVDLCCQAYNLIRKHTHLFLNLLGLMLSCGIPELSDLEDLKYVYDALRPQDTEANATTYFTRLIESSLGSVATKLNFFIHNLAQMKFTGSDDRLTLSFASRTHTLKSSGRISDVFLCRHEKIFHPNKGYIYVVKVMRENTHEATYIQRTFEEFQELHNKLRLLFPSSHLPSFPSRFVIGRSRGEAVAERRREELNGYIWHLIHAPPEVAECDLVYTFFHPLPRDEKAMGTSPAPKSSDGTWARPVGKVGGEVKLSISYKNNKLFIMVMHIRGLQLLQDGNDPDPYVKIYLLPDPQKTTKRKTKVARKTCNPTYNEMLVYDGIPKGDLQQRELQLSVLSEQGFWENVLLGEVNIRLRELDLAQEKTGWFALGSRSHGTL

Study 1 — read-out: enzyme activity; mode: inhibitor; tested at: 0.5 µM; relative to: control
Target: Serine/threonine-protein kinase BRSK1 (BRSK1, Homo sapiens, UniProt Q8TDC3)
Chain of UniProt Q8TDC3 (whole entry, looked up): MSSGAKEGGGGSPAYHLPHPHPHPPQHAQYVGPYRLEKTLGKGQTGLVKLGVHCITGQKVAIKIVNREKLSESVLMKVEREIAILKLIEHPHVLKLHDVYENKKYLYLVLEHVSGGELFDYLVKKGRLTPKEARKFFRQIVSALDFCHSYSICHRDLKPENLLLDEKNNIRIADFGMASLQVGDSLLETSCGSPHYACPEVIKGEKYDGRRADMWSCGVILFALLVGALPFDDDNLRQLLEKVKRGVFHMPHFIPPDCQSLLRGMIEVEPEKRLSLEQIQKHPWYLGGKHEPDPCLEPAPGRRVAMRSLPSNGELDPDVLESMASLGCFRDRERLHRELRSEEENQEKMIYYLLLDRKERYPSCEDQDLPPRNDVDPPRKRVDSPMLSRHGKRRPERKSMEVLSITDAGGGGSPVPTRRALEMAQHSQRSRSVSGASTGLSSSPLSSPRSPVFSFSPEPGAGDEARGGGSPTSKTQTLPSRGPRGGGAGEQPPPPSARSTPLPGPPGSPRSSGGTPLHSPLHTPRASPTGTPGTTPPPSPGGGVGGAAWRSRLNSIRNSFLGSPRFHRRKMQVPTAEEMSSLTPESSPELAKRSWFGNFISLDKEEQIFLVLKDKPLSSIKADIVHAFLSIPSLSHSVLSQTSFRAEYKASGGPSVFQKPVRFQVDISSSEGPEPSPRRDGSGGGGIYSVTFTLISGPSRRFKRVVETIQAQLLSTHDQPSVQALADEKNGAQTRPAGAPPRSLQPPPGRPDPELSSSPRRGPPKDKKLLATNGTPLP
SMILES | remaining activity
Cc1cc(Nc2cc(N3CCN(C)CC3)nc(Sc3ccc(NC(=O)C4CC4)cc3)n2)[nH]n1 | 112%
CC(C)(C)c1nc2c3cc[nH]c(=O)c3c3cc(F)ccc3c2[nH]1 | 15.4%
O=C(c1ccccc1)c1ccc(N2CCOCC2)cc1O | 103%
O=Nc1c(-c2c(O)[nH]c3cc(Br)ccc23)[nH]c2ccccc12 | 14.6%
c1cc(-c2cnn3cc(-c4ccc(OCCN5CCCCC5)cc4)cnc23)ccn1 | 74.5%
O=C1NC(=O)c2c1c1c3ccccc3[nH]c1n1cncc21 | 22.5%
Oc1cccc(-c2nc(N3CCOCC3)c3oc4ncccc4c3n2)c1 | 91.1%
N#CC(c1ccnc(NCCc2cccnc2)n1)c1nc2ccccc2s1 (centres unmarked) | 92.7%
N#Cc1cnc2cnc(NCc3cccnc3)cc2c1Nc1ccc(F)c(Cl)c1 | 94.5%
CC(C)N(CCC(=O)c1ccc2ccccc2c1)Cc1ccccc1 | 98%
NC(=O)c1cccc(-c2cc(Nc3ccc(OC(F)(F)F)cc3)ncn2)c1 | 98.4%
CN1CCN(c2ccc3nc(-c4c(N)c5c(F)cccc5[nH]c4=O)[nH]c3c2)CC1 | 59.8%
CNc1cc2c(Nc3cccc(Br)c3)ncnc2cn1 | 91.2%
CC(C)n1cnc2c(Nc3cccc(Cl)c3)nc(NCCO)nc21 | 93.1%
O=C(O)/C=C/c1cc(Br)c(Br)c(Br)c1Br | 80.5%
CCCCc1c(-c2ccc(OC)cc2)[nH]c2nccnc12 | 89.1%
CN(C)S(=O)(=O)c1ccc2c(c1)/C(=C/c1cc3c([nH]1)CCCC3)C(=O)N2 | 32.4%
COc1cccc(-c2cc(=O)c3ccccc3o2)c1N | 84.9%
O=C1NC(=O)/C(=C/c2ccc3c(c2)OC(F)(F)O3)S1 | 88%

Study 2 — read-out: cell-free assay; method: competition with immobilised ligand; tested at: 1 µM
SMILES: Cc1cc(NC(=O)c2cccc(S(F)(F)(F)(F)F)c2)cc(-n2ccn3nc(-c4cccnc4)cc23)c1
target | remaining binding [%]
DYRK1A (Homo sapiens, UniProt Q13627) | 100
SBK3 (Homo sapiens, UniProt P0C264) | 100
EGFR (Homo sapiens, UniProt P00533, L861Q) | 98.2
PIK3C2B (Homo sapiens, UniProt O00750) | 100
CIT (Homo sapiens, UniProt O14578) | 60.7
PIK3CA (Homo sapiens, UniProt P42336, H1047Y) | 22.9
LATS2 (Homo sapiens, UniProt Q9NRM7) | 100
HIPK2 (Homo sapiens, UniProt Q9H2X6) | 85
NEK11 (Homo sapiens, UniProt Q8NG66) | 57.5
PKN1 (Homo sapiens, UniProt Q16512) | 100
PIKFYVE (Homo sapiens, UniProt Q9Y2I7) | 100
NLK (Homo sapiens, UniProt Q9UBE8) | 100
BMX (Homo sapiens, UniProt P51813) | 100

Study 3 — mode: inhibitor; tested at: 10 µM; relative to: control
Target: Diamine acetyltransferase 1 (Homo sapiens, UniProt P21673)
Residues (P21673 1-171): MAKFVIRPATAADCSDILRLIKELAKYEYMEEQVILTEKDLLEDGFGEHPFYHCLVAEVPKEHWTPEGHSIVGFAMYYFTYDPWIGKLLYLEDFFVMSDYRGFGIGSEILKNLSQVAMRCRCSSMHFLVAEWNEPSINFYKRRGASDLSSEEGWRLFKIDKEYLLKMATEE
SMILES | remaining activity [%]
O=C(O)Cc1ccccc1O | 102
O=C[C@H](O)[C@@H](O)[C@H](O[C@H]1O[C@H](CO)[C@@H](O[C@H]2O[C@H](CO)[C@@H](O[C@H]3O[C@H](CO)[C@@H](O)[C@H](O)[C@H]3O)[C@H](O)[C@H]2O)[C@H](O)[C@H]1O)[C@H](O)CO | 85.9
C=CC(C)(CCC=C(C)C)OC(C)=O (centres unmarked) | 111
O=c1cc[nH]c(=O)[nH]1 | 79.4
COC(=O)/C=C/c1ccccc1 | 84.9
Cc1ccc([C@]2(C)CCCC2(C)C)cc1 | 87.6
CC(C)=C[C@H]1C[C@](C)(O)[C@@H]2[C@H]3CC[C@@H]4[C@@]5(C)CC[C@H](O[C@@H]6OC[C@H](O)[C@H](O[C@@H]7O[C@H](CO)[C@@H](O)[C@H](O)[C@H]7O[C@@H]7OC[C@@H](O)[C@H](O)[C@H]7O)[C@H]6O[C@@H]6O[C@@H](C)[C@H](O)[C@@H](O)[C@H]6O)C(C)(C)[C@@H]5CC[C@@]4(C)[C@@]34CO[C@@]2(C4)O1 | 104
OCCCc1ccccc1 | 86

Single results of other studies
SMILES | target | species | medium | route | dose | quantity | value
CC(=O)N[C@@H](Cc1c[nH]c2ccccc12)C(=O)N[C@@H](CCC(=O)C=[N+]=[N-])C(=O)OC(C)C | Glutaminase kidney isoform, mitochondrial (Mus musculus, UniProt D3Z7P3) | C57BL/6 CES1-/- mouse, EL4 tumour | tumour | subcutaneous | dose not given | enzyme activity | 557 fmol/mg/h

Excerpt of the above (study 1):
SMILES | remaining activity
O=C1NC(=O)c2c1c1c3ccccc3[nH]c1n1cncc21 | 22.5%
NC(=O)c1cccc(-c2cc(Nc3ccc(OC(F)(F)F)cc3)ncn2)c1 | 98.4%
CC(C)n1cnc2c(Nc3cccc(Cl)c3)nc(NCCO)nc21 | 93.1%
O=Nc1c(-c2c(O)[nH]c3cc(Br)ccc23)[nH]c2ccccc12 | 14.6%
COc1cccc(-c2cc(=O)c3ccccc3o2)c1N | 84.9%
O=C(c1ccccc1)c1ccc(N2CCOCC2)cc1O | 103%
